# Results pooled from the literature.
# Compare with care: the assays were run in different laboratories.
Compound,organism,test,test system,setting,MIC
C=C[C@]1(C)C[C@@H](OC(=O)CSc2ccc(NC(=O)c3ccco3)cc2)[C@]2(C)[C@H](C)CC[C@]3(CCC(=O)[C@H]32)[C@@H](C)[C@@H]1O,Mycoplasma gallisepticum,,chicken lung isolates,10 mg/kg to chickens,0.00195 µg/mL
CC[C@H](C)[C@H](NC(=O)[C@H](CC(N)=O)NC(=O)[C@H](CCC(N)=O)NC(=O)[C@H](CC(C)C)NC(=O)[C@@H](NC(=O)[C@H](Cc1ccccc1)NC(=O)[C@H](Cc1ccc(O)cc1)NC(=O)[C@H](CO)NC(=O)[C@H](CS)NC(=O)[C@H](CC(C)C)NC(=O)[C@H](CCCCN)NC(=O)[C@H](CCCCN)NC(=O)[C@H](CCCNC(=N)N)NC(=O)[C@H](CCCNC(=N)N)NC(=O)[C@H](CS)NC(=O)[C@H](CCCNC(=N)N)NC(=O)[C@H](CCCCN)NC(=O)[C@H](CCCNC(=N)N)NC(=O)[C@H](CCCCN)NC(=O)[C@H](Cc1ccccc1)NC(=O)[C@@H](N)CCCNC(=N)N)[C@@H](C)CC)C(=O)N[C@@H](CC(N)=O)C(=O)N[C@@H](Cc1ccccc1)C(=O)N[C@@H](CCCNC(=N)N)C(=O)N[C@@H](CC(C)C)C(=O)N[C@@H](CCCNC(=N)N)C(=O)N[C@@H](CCCCN)C(=O)NCC(=O)N[C@@H](CCCCN)C(=O)O,Bordetella bronchiseptica,broth microdilution,ATCC 10580,"16 h, 37 °C, cation-adjusted Mueller-Hinton broth",32 µg/mL
CC1(C)[C@H](NC(=O)/C(=N\OCc2cc(=O)c(O)cn2O)c2csc(N)n2)C(=O)N1OS(=O)(=O)O,Enterobacter aerogenes,agar dilution,ATCC 13048 susceptible,,0.125 µg/mL
CC[C@H](C)[C@H](NC(=O)[C@H](CCCNC(=N)N)NC(=O)[C@H](CC(=O)O)NC(=O)[C@H](CCCNC(=N)N)NC(=O)[C@H](CC(C)C)NC(=O)[C@H](CC(N)=O)NC(=O)[C@H](CCCNC(=N)N)NC(=O)[C@@H](N)Cc1ccccc1)C(=O)N[C@@H](CCCCN)C(=O)N[C@@H](CC(N)=O)C(=O)N[C@@H](CCCCN)C(=O)N[C@@H](Cc1ccccc1)C(=O)N[C@@H](CCC(=O)O)C(=O)N[C@@H](CC(N)=O)C(=O)N[C@@H](C)C(=O)N[C@@H](CC(C)C)C(=O)N[C@@H](CCCCN)C(=O)N[C@@H](CC(N)=O)C(=O)N[C@H](C(=O)N[C@H](C(=O)N[C@@H](CC(N)=O)C(=O)N[C@@H](CCCCN)C(=O)N[C@@H](CC(C)C)C(=O)N[C@@H](Cc1ccccc1)C(=O)N1CCC[C@H]1C(=O)O)[C@@H](C)CC)C(C)C,Bordetella bronchiseptica,broth microdilution,ATCC 10580,"16 h, 37 °C, cation-adjusted Mueller-Hinton broth",64 µg/mL
CC1C=CC=CC(C)C2C=CC3CC(C)(O)C(Cl)C(C)C3C2C(=O)C(Cl)(Cl)C(=O)C(C)C(=O)O1 (stereo not shown),Staphylococcus aureus,,MRSA clinical isolate,"resistant, OXA, CIP, MXF, ERY, CLI, DAP, VAN",0.025 µg/mL
C#CCO/N=C(\C(=O)N[C@@H]1C(=O)N(OS(=O)(=O)O)C1(C)C)c1nsc(N)n1,Enterobacter aerogenes,agar dilution,"ATCC 13048, susceptible",,16 µg/mL
C[C@@H]1C(=O)O[C@@H](C)/C=C/C=C\[C@@H](C)[C@@H]2C=C[C@@H]3C[C@@]4(C)O[C@H]4[C@@H](C)[C@H]3[C@@H]2C(=O)C(Cl)(Cl)C1=O,Staphylococcus aureus,,MRSA clinical isolate,"resistant: OXA,CIP,CLI,DAP,ERY,LVX,MXF,TOB",0.0125 µg/mL
COc1cccc(OC)c1C(=O)N[C@@H]1C(=O)N2[C@@H]1SC(C)(C)[C@@H]2C(=O)O,Listeria monocytogenes,,"1.108, glucose peptone yeast broth","18 to 20 h, 37 °C",2 µM
C#CCNC(=O)C(C)(C)O/N=C(\C(=O)N[C@@H]1C(=O)N(S(=O)(=O)O)[C@H]1C)c1csc(N)n1,Enterobacter aerogenes,agar dilution,ATCC 13048 susceptible,,8 µg/mL
Cc1c(CN(C)C(=O)/C=C/c2cnc3c(c2)CC(N)C(=O)N3)oc2ccccc12 (stereo not shown),Acinetobacter baumannii,broth microdilution,AR-0078,,16 µg/mL

# Some of these lines once more:
Compound,organism,test,test system,setting,MIC
CC1(C)[C@H](NC(=O)/C(=N\OCc2cc(=O)c(O)cn2O)c2csc(N)n2)C(=O)N1OS(=O)(=O)O,Enterobacter aerogenes,agar dilution,ATCC 13048 susceptible,,0.125 µg/mL
